Experimental data pooled from the literature.
Protocols differ between the studies behind these lines. Several values in a cell are separate wells, animals, samples, runs or records.
Sample: plasma

For `Nc1ccn(C[C@@H](CO)OCP(=O)(O)OCCCS(=O)(=O)CCCCCCCCCCCCCC2CCC2)c(=O)n1`, the clearance was 64 mL/min/kg (mouse; intravenous, 3 mg/kg, single dose).
`COC1C=COC2(C)Oc3c(C)c(O)c4c(c3C2=O)C2=NC3(CCN(CC(C)C)CC3)NC2=C(NC(=O)C(C)=CC=CC(C)C(O)C(C)C(O)C(C)C(OC(=O)c2cccnc2)C1C)C4=O` (stereo not drawn) has a clearance of 2.98 mL/min/kg (female CD-1 mouse; intravenous, 5 mg/kg).
`Cc1ccc2oc(-c3c4c(N)n[nH]c(=O)c4nn3-c3ccc(NC(=O)/C=C/CN(C)C)cc3)c(C)c2c1` gave a clearance of 65.2 mL/min/kg (mouse; intravenous, 1 mg/kg).
`COc1cccc2c1C(=O)c1c(O)c3c(c(O)c1C2=O)C[C@@](O)(C(=O)CO)C[C@@H]3O[C@H]1C[C@H](N)[C@@H](O)[C@H](C)O1` gave a clearance of 6.92 mL/min/kg (male Kunming mouse; intravenous, 5 mg/kg).
`COC(=O)c1ccc2c(c1)NC(=O)/C2=C(\Nc1ccc2c(c1)CCN2C(=O)CN1CCOCC1)c1ccccc1` gave a clearance of 25 mL/min/kg (CD-1 mouse; intravenous, 10 mg/kg).
The clearance of `COC1C=COC2(C)Oc3c(C)c(O)c4c(c3C2=O)C2=NC3(CCN(CC(C)C)CC3)NC2=C(NC(=O)C(C)=CC=CC(C)C(O)C(C)C(O)C(C)C(OC(=O)Nc2cccnn2)C1C)C4=O` (stereo not drawn) is reported as 2.27 mL/min/kg (female CD-1 mouse; intravenous, 5 mg/kg).
`CCCC[C@@H]1NC(=O)[C@H](Cc2ccc(O)cc2)NC(=O)[C@@H]2CCCN2C(=O)[C@H](CC(=O)O)NC(=O)[C@H](C)NC(=O)[C@H](Cc2ccccc2)NC(=O)[C@@H]2CSCCC(=O)N3CN(CN(C3)C(=O)CCSC[C@@H](C(=O)N[C@@H](C)C(N)=O)NC1=O)C(=O)CCSC[C@H](NC(C)=O)C(=O)N[C@@H](CC(C)(C)C)C(=O)N1CCC[C@H]1C(=O)N[C@@H](CCC(=O)O)C(=O)N[C@H](CCCCNC(=O)CCc1cn(CCOCCOCCOCCN(CCOCCOCCOCCC(=O)N[C@@H](C)C(=O)N[C@@H](CCCCNC(=N)N)C(=O)N[C@@H](CC(=O)O)C(=O)N[C@H]3CSCCC(=O)N4CN5CN(C4)C(=O)CCSC[C@H](NC(=O)[C@H](CC(C)C)NC(=O)[C@@H]4CCCN4C(=O)[C@H](CC(N)=O)NC(=O)[C@H](C(C)C)NC(=O)[C@H](CC(C)C)NC(=O)[C@@H]4C[C@@H](O)CN4C3=O)C(=O)N[C@@H](CC(C)C)C(=O)N[C@@H](Cc3c[nH]cn3)C(=O)N3CCC[C@H]3C(=O)N[C@H](CC(=O)O)C(=O)N[C@@H](Cc3c[nH]c4ccccc34)C(=O)N[C@@H](CCCCNC(=N)N)C(=O)N[C@H](C(N)=O)CSCCC5=O)CCOCCOCCOCCn3cc(CCC(=O)NCCCC[C@H]4NC(=O)[C@H](CCC(=O)O)NC(=O)[C@@H]5CCCN5C(=O)[C@H](CC(C)(C)C)NC(=O)[C@@H](NC(C)=O)CSCCC(=O)N5CN6CN(C5)C(=O)CCSC[C@H](NC(=O)[C@H](Cc5ccc(O)cc5)NC(=O)[C@@H]5CCCN5C4=O)C(=O)N[C@@H](Cc4ccccc4)C(=O)N[C@@H](C)C(=O)N[C@@H](CC(=O)O)C(=O)N4CCC[C@H]4C(=O)N[C@@H](Cc4ccc(O)cc4)C(=O)N[C@@H](CCCC)C(=O)N[C@H](C(=O)N[C@@H](C)C(N)=O)CSCCC6=O)nn3)nn1)C(=O)N1CCC[C@H]1C(=O)N[C@@H](Cc1ccc(O)cc1)C(=O)N2` has a clearance of 17 mL/min/kg (mouse; intravenous, 5 mg/kg).
`C=C(C)C(=O)Nc1ccc(-c2c(-c3ccc(Oc4nccc(C)n4)cc3)c3c(N)ncnc3n2C)cc1` has a clearance of 3.4 mL/min/kg (nude mouse; intravenous).
The clearance of `C[N+]1(CC(=O)OC2CCCCCCCCCCC2)CCCCC1` is reported as 0.14 L/h (mouse; intraperitoneal, 2.5 mg/kg, single dose).
`FC(F)(F)c1cc(Nc2nc(-c3ccccc3)cc(C3CCNCC3)n2)ccn1` gave a clearance of 43 mL/min/kg (male CD-1 mouse; intravenous, 3 mg/kg).
For `COc1ccccc1NC(=O)OC1C(C)C(OC)C=COC2(C)Oc3c(C)c(O)c4c(c3C2=O)C2=NC3(CCN(CC(C)C)CC3)NC2=C(NC(=O)C(C)=CC=CC(C)C(O)C(C)C(O)C1C)C4=O` (stereo not drawn), the clearance was 3.67 mL/min/kg (female CD-1 mouse; intravenous, 5 mg/kg).
`NC(=O)c1c(F)ccc(OCc2nc3cc(Cl)cnc3s2)c1F` gave a clearance of 20.6 mL/min/kg (mouse; intravenous, 3 mg/kg).
`CCOc1c(C(C)(C)O)sc2cnc(Nc3ccc(N4CCC(N5CC6(COC6)C5)CC4)cc3OC)nc12` has a clearance of 11.8 mL/min/kg (male C57BL/6 mouse; intravenous, 3 mg/kg).
The clearance of `CCc1nc(N)nc(N)c1C#C[C@H](C)c1cc(-c2ccncc2)ccc1OC` is reported as 54.4 mL/min/kg and 54 mL/min/kg (mouse; intraperitoneal, 16 mg/kg, single dose).
The clearance of `C[C@H]1CN(C(=O)c2cn(-c3ccnc(N)n3)c3cc(C#CC4(O)CCCCC4)ccc23)CCN1` is reported as 62.7 mL/min/kg (CD-1 mouse; intravenous, 1 mg/kg).
